# Experimental data pooled from the literature.
# Protocols differ between the studies behind these lines.
# Organism: Staphylococcus aureus
SMILES,assay,test system,setting,quantity,value
CCCCCC(=O)Oc1c(C)c(OC)c2c(c1C)OC(=O)[C@@H](CCCC)[C@]2(O)/C=C/c1ccccc1 (relative stereo),"microbial killing, broth dilution",ATCC25923,,MBC,> 5000 µg/mL
CC1C=CC=CC(C)C2C=CC3CC(C)(O)C(Cl)C(C)C3C2C(=O)C(Cl)(Cl)C(=O)C(C)C(=O)O1 (stereo not shown),,MSSA and MRSA clinical isolates,180 isolates,MIC90,0.1 µg/mL
CC[C@H](C)[C@H](NC(=O)[C@H](CC1CCCCC1)NC(=O)[C@H]1CCCN1C(=O)[C@@H](N)CCCN)C(=O)N[C@H](Cc1ccccc1)C(=O)N[C@@H](Cc1cn(Cc2ccccc2)cn1)C(N)=O,,"ATCC 33591, methicillin-resistant",,IC50,> 20 µg/mL
C=CC(=O)NCCCCCCCCOCc1cn(CCCCCCCCNC(=O)C=C)n[n+]1C,"growth, turbidity OD600",,24 h,IC50,> 100 µM
N=C(N)NCCC[C@@H]1NC(=O)[C@H](CCCNC(=N)N)NC(=O)[C@@H](C(c2ccccc2)c2ccccc2)NC(=O)[C@H](Cc2c[nH]c3ccccc23)NC(=O)[C@@H](C(c2ccccc2)c2ccccc2)NC(=O)[C@@H](CCCNC(=N)N)NC(=O)[C@@H](CCCNC(=N)N)NC1=O,,MRSA ATCC BAA-1556,"MIC, 24 h, pre-formed biofilm",biofilm reduction,41 to 49%
COc1ccc2cc3[n+](cc2c1OC)CCc1cc2c(cc1-3)OCO2.[Cl][Fe-]([Cl])([Cl])[Cl],,,,MBC/MIC ratio,2
C[n+]1nn(CCCCCCCCN2C(=O)C=CC2=O)cc1COCCCCCCCCN1C(=O)C=CC1=O,"growth, turbidity OD600",,24 h,IC50,> 100 µM
CCCCCCCCCC(=O)Oc1c(C)c(OC)c2c(/C=C/c3ccccc3)c(CCCCCCCC)c(=O)oc2c1C,"microbial killing, broth dilution",ATCC25923,,MBC,> 5000 µg/mL
CC(CCCOC(=O)CCC[N+](C)(C)C)C1CCC2C3C(OC(=O)CCC[N+](C)(C)C)CC4CC(OC(=O)CCC[N+](C)(C)C)CCC4(C)C3CC(OC(=O)CCC[N+](C)(C)C)C12C (stereo not shown),"microbial growth, disc diffusion",ATCC29213,"125 µg/disc, 24 h",inhibition zone,12 mm
O=C1C=CC(=O)N1CCCCOCc1cn(CCCCN2C(=O)C=CC2=O)nn1,"growth, turbidity OD600",,24 h,IC50,> 100 µM
CC(CCCOC(=O)CCC[N+](C)(C)C)C1CCC2C3CCC4CC(OC(=O)CCC[N+](C)(C)C)CCC4(C)C3CC(OC(=O)CCC[N+](C)(C)C)C12C (stereo not shown),"microbial growth, disc diffusion",ATCC29213,"15.6 µg/disc, 24 h",inhibition zone,18 mm
C[n+]1nn(CCCCCCN2C(=O)C=CC2=O)cc1COCCCCCCN1C(=O)C=CC1=O,"growth, turbidity OD600",,24 h,IC50,> 100 µM
O=c1c(O)ccc(-c2ccccc2)cc1O,"microbial growth, broth dilution",ATCC29213,,MIC80,19.8 µM
CCCC[C@H](NC(=O)[C@@H](N)CCCN)C(=O)N[C@@H](CC1CCCCC1)C(=O)N[C@H](C(=O)N[C@H](Cc1ccccc1)C(=O)N[C@@H](Cc1cn(Cc2ccccc2)cn1)C(N)=O)[C@@H](C)CC,,"ATCC 33591, methicillin-resistant",,IC50,> 20 µg/mL
O=C(Oc1cccccc1=O)c1ccc([N+](=O)[O-])cc1,"microbial growth, broth dilution",ATCC29213,,MIC80,16.5 µM
CC(=O)N[C@@H](CCCCN)C(=O)N1CCC[C@H]1C(=O)N[C@H](C(=O)N[C@@H](Cc1ccccc1)C(=O)N[C@@H](CCC(N)=O)C(=O)N[C@@H](Cc1ccccc1)C(=O)N[C@@H](CC(C)C)C(=O)N[C@@H](Cc1ccccc1)C(=O)N[C@@H](Cc1c[nH]cn1)C(=O)N[C@@H](CCC(=O)O)C(N)=O)C(C)C,flow cytometry,"USA300, hydrogel","concentration not given, 4 h, pH 7.4, 37 °C",PI-permeable cells,0.32%
C=C1CN(S(=O)(=O)c2ccc([N+](=O)[O-])cc2)CC2Nc3c(F)cc(Br)cc3C12CCNS(=O)(=O)c1ccc(Cl)cc1 (stereo not shown),,MRSA ATCC BAA-44,together with: cefazolin,minimum resensitizing concentration,> 32 µg/mL
CC(C)C1=CC2=CCC3C(C)(C(=O)OCCC[N+](C)(C)C)CCCC3(C)C2CC1 (stereo not shown),"microbial growth, disc diffusion",ATCC29213,"125 µg/disc, 24 h",inhibition zone,18 mm
COc1c(C)c(OS(=O)(=O)c2ccccc2)c(C)c2c1C(=O)CC(c1ccccc1)O2 (stereo not shown),"microbial killing, broth dilution",ATCC25923,,MBC,> 5000 µg/mL
CC(CCCOC(=O)CCC[N+](C)(C)C)C1CCC2C3CCC4CC(OC(=O)CCC[N+](C)(C)C)CCC4(C)C3CCC12C (stereo not shown),"microbial growth, disc diffusion",ATCC29213,"62.5 µg/disc, 24 h",inhibition zone,13 mm
CC[C@H](C)[C@H](NC(=O)[C@H](CC1CCCCC1)NC(=O)[C@@H](Cc1ccccc1)NC(=O)[C@@H](N)CCCN)C(=O)N[C@H](Cc1ccccc1)C(=O)N[C@@H](Cc1cn(Cc2ccccc2)cn1)C(N)=O,,"ATCC 33591, methicillin-resistant",,IC50,> 20 µg/mL
CC(NC(=O)c1ccccc1)C(CCCCCCCCCCCCCCC(=O)CCCCCCCC(OC(=O)c1ccccc1)C(C)NC(=O)c1ccccc1)OC(=O)c1ccccc1 (stereo not shown),resazurin,ATCC 12600,50 µM,growth inhibition,-15%
C=CCOc1c(C)c(OC)c(C(=O)/C=C/c2ccccc2)c(OCC=C)c1C,"microbial killing, broth dilution",ATCC25923,,MBC,> 5000 µg/mL
CC[C@H](C)[C@H](NC(=O)[C@H](CC1CCCCC1)NC(=O)[C@@H](CC(C)C)NC(=O)[C@@H](N)CCCN)C(=O)N[C@H](Cc1ccccc1)C(=O)N[C@@H](Cc1cn(Cc2ccccc2)cn1)C(N)=O,bacterial growth,ATCC 29213,,IC50,> 20 µg/mL
C=CC(=O)NCCCCCCOCc1cn(CCCCCCNC(=O)C=C)n[n+]1C,"growth, turbidity OD600",,24 h,IC50,> 100 µM

# Excerpt of the above:
SMILES,assay,test system,setting,quantity,value
CC(C)C1=CC2=CCC3C(C)(C(=O)OCCC[N+](C)(C)C)CCCC3(C)C2CC1 (stereo not shown),"microbial growth, disc diffusion",ATCC29213,"125 µg/disc, 24 h",inhibition zone,18 mm
CC(=O)N[C@@H](CCCCN)C(=O)N1CCC[C@H]1C(=O)N[C@H](C(=O)N[C@@H](Cc1ccccc1)C(=O)N[C@@H](CCC(N)=O)C(=O)N[C@@H](Cc1ccccc1)C(=O)N[C@@H](CC(C)C)C(=O)N[C@@H](Cc1ccccc1)C(=O)N[C@@H](Cc1c[nH]cn1)C(=O)N[C@@H](CCC(=O)O)C(N)=O)C(C)C,flow cytometry,"USA300, hydrogel","concentration not given, 4 h, pH 7.4, 37 °C",PI-permeable cells,0.32%
COc1ccc2cc3[n+](cc2c1OC)CCc1cc2c(cc1-3)OCO2.[Cl][Fe-]([Cl])([Cl])[Cl],,,,MBC/MIC ratio,2
